Published values of several laboratories.
Parts stem from different laboratories: compare values within a part only.

Series 1
Target: Sal-like protein 4, full length isoform A (SALL4, Homo sapiens, UniProt Q9UJQ4, residues 1-1053)
UniProt Q9UJQ4, sequence (whole entry, looked up): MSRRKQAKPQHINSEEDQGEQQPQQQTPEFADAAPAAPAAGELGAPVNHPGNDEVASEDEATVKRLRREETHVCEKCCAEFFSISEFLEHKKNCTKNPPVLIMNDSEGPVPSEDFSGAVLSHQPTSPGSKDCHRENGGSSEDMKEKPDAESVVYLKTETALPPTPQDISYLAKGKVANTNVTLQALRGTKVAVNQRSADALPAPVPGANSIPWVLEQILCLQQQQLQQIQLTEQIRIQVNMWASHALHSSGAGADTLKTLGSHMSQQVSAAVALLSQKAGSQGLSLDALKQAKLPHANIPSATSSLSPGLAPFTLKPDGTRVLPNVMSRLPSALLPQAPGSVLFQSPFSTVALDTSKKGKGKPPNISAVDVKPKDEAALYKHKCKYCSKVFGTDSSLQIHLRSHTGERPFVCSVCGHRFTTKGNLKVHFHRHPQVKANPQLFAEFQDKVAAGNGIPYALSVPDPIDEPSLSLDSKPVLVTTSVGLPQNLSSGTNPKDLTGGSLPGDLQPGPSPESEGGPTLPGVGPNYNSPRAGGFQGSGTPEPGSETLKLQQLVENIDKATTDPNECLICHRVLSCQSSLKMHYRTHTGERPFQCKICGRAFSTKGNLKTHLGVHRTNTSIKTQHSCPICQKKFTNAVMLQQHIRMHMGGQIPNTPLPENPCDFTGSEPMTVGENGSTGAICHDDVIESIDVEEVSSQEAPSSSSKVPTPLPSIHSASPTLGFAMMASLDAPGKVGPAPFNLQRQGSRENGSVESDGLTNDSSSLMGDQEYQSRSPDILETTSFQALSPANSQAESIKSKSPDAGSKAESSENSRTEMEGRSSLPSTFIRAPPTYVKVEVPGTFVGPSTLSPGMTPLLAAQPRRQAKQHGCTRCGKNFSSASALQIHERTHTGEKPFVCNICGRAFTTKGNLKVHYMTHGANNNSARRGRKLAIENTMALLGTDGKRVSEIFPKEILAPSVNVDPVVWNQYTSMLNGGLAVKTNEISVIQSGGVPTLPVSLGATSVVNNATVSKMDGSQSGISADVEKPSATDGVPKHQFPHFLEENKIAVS
Technique: universal PBM
Form: double-stranded DNA, one strand shown
Medium: in vitro
Concentration: 600 nM
Setting: 8-mer, flanks averaged, mean of replicates
Reading: higher = stronger binding
Oligonucleotide	E-score
GAAAAGAC	0.0908
CAAAGCTG	0.0522
GAATCACC	-0.0253
TAATAAAA	0.432
ATCCAGAC	-0.0704
GCAGCCAC	-0.2
TTATCAAA	0.277
CGCGGTAC	-0.281
ATGAATTG	0.263
CAGGATGG	-0.155
ATTGCTCC	-0.127
ACACCCAT	0.0866
AATAATAG	0.348
TCCCACGA	-0.141
GATGAGCA	0.0537
AGTGGTTG	-0.0601

Series 2
Target: Interferon regulatory factor 5, full length, phosphomimetic (IRF5, Homo sapiens, UniProt Q13568-2, residues 1-514, S451D/S453D/S456D/S462D)
Technique: protein-binding microarray
Form: double-stranded DNA, one strand shown
Medium: in vitro
Concentration: 940 nM top
Setting: 60-bp whole probe
Added: salmon DNA 0.4 mg/ml
Reference: random background probes
Reading: higher = stronger binding
Constant ends, left off below: GCCTAGCAC … GTCTTGATTCGCTTGACGCTGCTG
Oligonucleotide	fitted relative affinity [z-score]
GACGGTCTCCTGCTGCTGACGTGCTAG	-0.353
TCATGCATCTATCTTAAACTGTGCTAG	0.527
GGCGGACTGCTTTTCCTGACGTGCTAG	-0.391
TTAGGACGGGACTATCGGTTAGTGCTA	-0.277
TTTTCCAGAGGCCCAGCCAGGTGCTAG	0.0568
TTAGGTTCCGGTTTCGGTTAGTGCTAG	9.51
CCTCCTCCCTGTTTCCATCTGTGCTAG	0.916
GACGGTCTCGGTCTCGTGACGTGCTAG	3.66
TTCCATTTCTGTTTTTGCTTGTGCTAG	2.94
GACGGTATCCTCTTCCTGACGTGCTAG	0.456
TTCTTTATGCACTCTTTACATGTGCTA	1.27
GACGATATCGGGTTTCGCGACGTGCTA	0.71

Series 3
Target: RING finger protein unkempt homolog, zinc fingers 1-6, GST-SBP tag (UNK, Homo sapiens, UniProt Q9C0B0, residues 30-357)
UniProt Q9C0B0, sequence (30-357, looked up): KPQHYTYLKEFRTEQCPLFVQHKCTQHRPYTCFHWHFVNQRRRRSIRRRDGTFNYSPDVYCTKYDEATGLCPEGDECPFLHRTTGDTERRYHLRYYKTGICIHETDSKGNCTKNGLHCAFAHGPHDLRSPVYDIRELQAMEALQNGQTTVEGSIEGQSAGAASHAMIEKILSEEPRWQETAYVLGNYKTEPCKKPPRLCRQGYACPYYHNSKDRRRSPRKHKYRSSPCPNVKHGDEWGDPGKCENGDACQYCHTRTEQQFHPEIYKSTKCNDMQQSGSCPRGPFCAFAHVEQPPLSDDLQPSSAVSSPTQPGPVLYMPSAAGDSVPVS
Technique: RNA Bind-n-Seq
Form: RNA
Medium: in vitro
Concentration: not given
Setting: RNA with constant flanks, human-mouse chimeric sites, ends assumed
Reference: input RNA pool
Reading: higher = stronger binding
Oligonucleotide	bound/input enrichment [ratio]
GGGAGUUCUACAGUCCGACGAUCCUGUGACCACAAGAUCCUACCUGAGUGGCAGCUGAAGCACUUUUCUUCUCCUUGCCUGAACCCCCCCCCACUGCCCCUUGAGUCCACAGUGUCGGCUGAGAUGUUGCCUCUGCACGGUUCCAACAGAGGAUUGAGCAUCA	0.453
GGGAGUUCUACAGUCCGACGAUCUUCAAAGAAAAGGGCAGUUCAUAAAUAUCAUAAGUAACUCUGGGGGAGGGAAAUUCUGUUCUUUUGUUUUUAGUUUUCCCAAAUGAAGCCAAAGUGUGUGUUGAAGAACUGAGAAAAAAUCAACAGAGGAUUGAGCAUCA	0.481
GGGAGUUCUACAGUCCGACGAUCUCGGAUGCUGUGCUGGGUCACUUUUCAUAUCCAGAUCCUUCACAGUGGACAGAUGAAGAACUGGGAAUCCCUCCUGAUGACGAGGACUGACACUGUAGACUCAGCCUCACUCUGUACGCACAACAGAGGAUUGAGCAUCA	0.144
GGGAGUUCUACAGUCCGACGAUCUUGGAAGGACCAGAGCCCAGUCAGCUCAAACCACUAGUCAUACAGGCUAUGCCCACCCUAAUAGAACUAAUGAAAGACCCCAGUGUAGUUGUUCGAGACACAACAGCGUGGACUGUGGGCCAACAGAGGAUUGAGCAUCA	0.7
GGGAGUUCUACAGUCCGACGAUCGUAGCUGGGACUACAGAAAUGCUGGUAAUUUCAGUCACUUGCUGAUGACUUCUGAUGACCUAGCAAAUGUUGGCAUUGUUGACUGCUGAGAAGAUACUUCUGAGGACAUACAGCAGUGGUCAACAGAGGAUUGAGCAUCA	0.242
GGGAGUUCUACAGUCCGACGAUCGUAUACGGUUAUCGAGGAAAGGACUGUAGAGCGAAUGUAUACCUGCUUCCGACCGGGGAGAUAGUUUAUUUUAUCGCAUCAGUAGUAGUCCUGUUUAAUUAUGAGGAGAGGACUCAGCGACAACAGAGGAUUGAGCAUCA	3.61
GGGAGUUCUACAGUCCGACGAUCUGUAGUUUCUUGAUUUAGUGGCUGGGCCUUUUCUUUCUUUCCUUUAGGAAAAGCCUAAAGAUUAGGUUGUAAGAAAAACAGAAGCCAUGUUUCGAAGGAAGACCUGUCAGGUAUUUCGUCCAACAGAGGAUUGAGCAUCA	0.152

Series 4
Target: RNA binding protein fox-1 homolog 2, RRM domain, GST-SBP tag (RBFOX2, Homo sapiens, UniProt O43251-10, residues 100-194)
Technique: RNA Bind-n-Seq
Form: RNA
Medium: in vitro
Concentration: 365 nM
Setting: natural RNA segment, single round, ends assumed
Reference: no-protein control
Reading: higher = stronger binding
Construct (chain): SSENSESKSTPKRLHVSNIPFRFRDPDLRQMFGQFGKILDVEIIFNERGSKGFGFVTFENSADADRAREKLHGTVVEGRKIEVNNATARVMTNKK
Oligonucleotide	RBNS enrichment (R)
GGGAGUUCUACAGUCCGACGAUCUGUGUGGCUGACUUUUGUGUAAGAAUCAUAGUUUGCUUUAGAAUACAAAUCUUUAAGUCAUUUUAACUUUUUUUUCUGCCUUACGAUAUAAAAAUAUUUAUCUUAGAAUUUGGAAUUCUCGGGUGCCAA	0.866
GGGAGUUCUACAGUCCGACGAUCGUGCUUCCUUGACCUCUGACCUCUAGGCUCAUCUAAGCCUUGUGGGGAAAGGGAAGAGAUGGGGACAGCUGGUCCCAGGAGAUGCAGGCCCUUGCCUUAGGAUCCUGGUGUGGAAUUCUCGGGUGCCAA	0.331
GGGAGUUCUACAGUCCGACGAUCUUUAAGGUAUUUAAAGUAUUUUCUUCUCUGUGAGAAGGUUUAUUGUUAAUACAAGGUAUAAUAAAAUUAUCGCAACCCCUCUCCUUCCAGUAUAACCAGCUGAAGUUGCAUGGAAUUCUCGGGUGCCAA	1.53
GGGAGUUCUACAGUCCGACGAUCACCACUUUCAUACUCACGUCCUCAUCCUUGGAUACCCAGGGGAGGGCGAACCGUUUUCGCUCGUGUGUCUGUACGCAGCAUGUUGGGAUCGGGAGUUUCGGCACAGACUAUGGAAUUCUCGGGUGCCAA	2.56
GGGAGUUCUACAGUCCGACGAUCAAAGAUGAACUUCACUUGGGCCAGAUAGGCUGAACCAAGCUUCCUGGCGUUUGUAGAGAAAGUGGGACGCUGUUCUCUUCAUAUUUAAAUGCCAGCCAGGUGCUGGCUGUUGGAAUUCUCGGGUGCCAA	0.269
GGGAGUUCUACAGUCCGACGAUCAAGUAUCCACUUCCCUUUCUAUGAGCCCCAGCUGCUAUUUUGAGACAUCCUGGGGAAAUCGAGCAGAAAAACUGCACAGUUAUGUCAAAGGGCAAAAGUUUAGAAAUCCAUGGAAUUCUCGGGUGCCAA	0.457
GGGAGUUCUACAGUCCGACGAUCGUCGCUGAUCUCCCGGAGGAGGAGGCUGUUGACCUGAAAACAGUGGCGUGGCUCCCCUGUGCCCAGAUCUGGCCAUGGGUGAGGCCUGCACAGAUGUUGAAUGAACAUCUUGGAAUUCUCGGGUGCCAA	0.492
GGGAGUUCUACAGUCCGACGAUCUUCUUUUAAUAUUUUAUUUUAAUUAAAAUUAGGAAAAAAUGUGUUCAACAAUUUUUUUUUUGUCCCAUCUUCUCCAAAUCAGUGGGAAAAGCUUACCUUUUGGUAUAUCUUGGAAUUCUCGGGUGCCAA	0.895
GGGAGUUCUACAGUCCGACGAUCCUGCCUCCUGAGGGUGUGGGGUUAUUAGGGUCUCAAUACUUUCUCAAGGGGCUACACUCCCCAUCAGGCAGCAUCCCACCAGCCUGCACCACAGGCUCCCCUGGGAGGACUGGAAUUCUCGGGUGCCAA	0.338
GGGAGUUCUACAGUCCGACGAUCCUCUCCGCUUGUGACAAAGUCAUUGUUGCCAUCAGGAUUUCAAGUAAUGGGCGUAUCUCAGGGCUAACUAUUGUUUGAAUUAGGCACCAAUAUAUUUUAAAUCAUUUUAUUGGAAUUCUCGGGUGCCAA	0.639
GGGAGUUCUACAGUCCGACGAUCACGGAGCCUUGGGCUUCUGCGUGUUGCCUGACUGUACAAAAGUCUAGUCUCAAAGAUCAAGUUGGUCUGAGGAGCCGGAUGUGACUGUGGGUGUUGGCUGGGGCAUUAAAUGGAAUUCUCGGGUGCCAA	0.717
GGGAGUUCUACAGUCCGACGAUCAAUCACUAGAUUAGAAAACACGCAGUAUGAUGCGGCCAACGGCAUGGACGACGAAGAAGACUUCAACAAUUCACCUGCCCUGGGGAACAACAGCCCGUGGAACAGUAAACUGGAAUUCUCGGGUGCCAA	0.328

Series 5
Target: Prothrombin, mature alpha-thrombin (F2, Homo sapiens, UniProt P00734)
Technique: aptamer microarray, sandwich
Form: DNA with 2'F-ANA
Medium: in vitro
Concentration: 200 nM
Setting: whole 15-mer aptamer, many near background
Added: Cy3 exosite-II aptamer, 400 nM
Reading: higher = stronger binding
Oligonucleotide: GGTTGGTGTGGTTGG
Modification	mean fluorescence intensity [a.u.]
2'F-ANA at 2 6 7 9 10 11 14 15	82.5
2'F-ANA at 1 4 5 6 7 8 9 10 11 13 14 15	46.7
2'F-ANA at 2 4 5 9 10 11 14 15	61.6
2'F-ANA at 1 2 5 7 8 10 11 15	137
2'F-ANA at 1 5 6 7 9 13	49.1
2'F-ANA at 1 3 5 6 9 12 13 15	93
2'F-ANA at 4 6 9 10 11 15	74.2
2'F-ANA at 2 3 8 9 10 11 13	390
2'F-ANA at 1 3 4 6 7 8 9 10 13	59.5
2'F-ANA at 1 3 4 5 10 11 14	46.2
2'F-ANA at 2 3 4 6 7 8 9 11 13 14 15	184
2'F-ANA at 2 3 6 7 8 9 11 12 13	748
2'F-ANA at 1 5 8 14 15	49
2'F-ANA at 4 8 10 11 14 15	55.5
2'F-ANA at 1 2 3 4 7 9 10 11 12 13 14 15	55.6

Series 6
Target: Eukaryotic initiation factor 4A-I (EIF4A1, Homo sapiens, UniProt P60842, residues 1-406, full length assumed)
UniProt P60842, sequence (whole entry, looked up): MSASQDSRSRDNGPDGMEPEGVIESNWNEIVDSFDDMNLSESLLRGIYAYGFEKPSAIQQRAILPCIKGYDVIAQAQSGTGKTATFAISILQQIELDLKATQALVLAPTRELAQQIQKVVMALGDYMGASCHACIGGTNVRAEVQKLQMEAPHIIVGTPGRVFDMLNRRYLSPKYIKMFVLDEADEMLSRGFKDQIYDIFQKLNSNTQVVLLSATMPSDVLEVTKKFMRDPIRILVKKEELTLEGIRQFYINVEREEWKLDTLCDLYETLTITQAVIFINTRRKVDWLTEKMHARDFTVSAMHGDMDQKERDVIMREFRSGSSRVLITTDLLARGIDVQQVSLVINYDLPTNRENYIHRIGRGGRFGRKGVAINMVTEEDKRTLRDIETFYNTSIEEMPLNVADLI
Technique: RNA Bind-n-Seq
Form: RNA
Medium: in vitro
Concentration: 90 pmol
Setting: 4-mer, random 30-nt RNA, single round
Added: 3 µM DMDA-PatA, 2 mM ADP, 2 mM phosphate
Reference: input library
Reading: higher = stronger binding
Oligonucleotide	4-mer enrichment [fold]
AGAG	1.65
GGUC	0.673
CACA	0.725
AACA	0.847
UUCC	0.635
AUAG	1.01
AUGU	1.15
CUCG	0.518
CGCC	0.639
UUGC	0.805
UGCC	0.567
GGAG	1.54
GAGC	1.12
ACUC	0.561
